Measurements of several laboratories.
Numbered parts are unrelated; each lists some results of a single study. Changes are numbered by the printed parent chain.

Set 1
Target: Phosphate system positive regulatory protein PHO4, full length, GST-tagged (PHO4, Saccharomyces cerevisiae, UniProt P07270, residues 1-312)
Technique: competition protein-binding microarray
Form: double-stranded DNA, one strand shown
Medium: in vitro
Tested at: 2 µM
Notes: whole 60-bp probe, lowest competitor level
Together with: Cbf1 competitor, 0.05 µM
Direction: higher = stronger binding
Constant ends, left off below: … GTCTTGATTCGCTTGACGCTGCTG
Construct (chain): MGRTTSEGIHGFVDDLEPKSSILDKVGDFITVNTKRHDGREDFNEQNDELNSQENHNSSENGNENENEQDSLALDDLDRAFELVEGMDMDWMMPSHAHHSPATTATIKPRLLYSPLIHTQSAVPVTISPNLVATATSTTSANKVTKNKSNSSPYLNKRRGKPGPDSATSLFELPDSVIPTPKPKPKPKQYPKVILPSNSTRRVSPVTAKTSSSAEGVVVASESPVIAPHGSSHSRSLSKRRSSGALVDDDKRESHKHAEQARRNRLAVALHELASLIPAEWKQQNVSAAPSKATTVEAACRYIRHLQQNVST
Sequence	fluorescence intensity
CATACCCAACCTTGAATAGTGGGTGAAGATATTTGT	3970 a.u.
CTGCTGCTGGTCTTGGCCGTGACGGGTGATACGAGT	5080 a.u.
CGGGGTTAAGTTTGAGTCGTGGGTGGCTTGCAGCAG	7050 a.u.
AAATTACTAAGTTATCACGTGTTTTACCCCGTATGA	17100 a.u.
CTACGCCATCGTTAGCACGCAGAATATTACTTTTTC	7610 a.u.
CTAACGAAGGTTTGTCCTGTGGGTGACAAGCCAAGT	3590 a.u.
CTAACGAAGGTTTGTCACACAACTTACAAGCCAAGT	4000 a.u.
GTCTTGTCTCATTGTCACGTAACTTTCCCCACTTCA	4690 a.u.
CACAGCGAAGTATGGCTCGTGACTCGCAAAATCATC	8070 a.u.
CATGGGGTTTATCCACTCGTGTCCTTGGTTTCATGG	8310 a.u.
AAATTACTAAGTTGTCACTATACTTACCCCGTATGA	3630 a.u.
CTTCTTTTTTTGGATTACGTGCTTTTAAAGCGGGAT	7180 a.u.
CTTATAAACAGCGCTGACGTGCTTTGACTTTGTTCC	5540 a.u.
GTATTTATGGCCTGGCACGTTCATTTCCTACATCCT	12600 a.u.
AGTCTCCTTTGCTCTTTCGTGATGGACCCACCGTAT	3420 a.u.
AGTGATCTTATCTTCCACATGTCCTTGGCCACTGGC	7840 a.u.
TTGTTATTTTGTCCGCGCATGTCCCGGACCCGCCAT	7460 a.u.
TTCCATCTGGGGACCCACATGTGTGGGTTTGGATTG	13200 a.u.
CTAACGAAGGTTTGTCACTAAACTTACAAGCCAAGT	2840 a.u.

Set 2
Target: RNA binding protein fox-1 homolog 2, RRM domain, GST-SBP tag (RBFOX2, Homo sapiens, UniProt O43251-10, residues 100-194)
Technique: RNA Bind-n-Seq
Form: RNA
Medium: in vitro
Tested at: 365 nM
Notes: natural RNA segment, single round, ends assumed
Reference: no-protein control
Direction: higher = stronger binding
Constant ends, left off below: GGGAGUUCUACAGUCCGACGAUC … UGGAAUUCUCGGGUGCCAA
Construct (chain): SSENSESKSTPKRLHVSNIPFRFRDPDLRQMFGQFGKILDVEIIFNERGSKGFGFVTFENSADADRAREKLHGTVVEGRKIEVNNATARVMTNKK
Sequence	RBNS enrichment (R)
AAUAGCCUUCAUACUGUGGAUUUUUCCUCCUACUAACUAAUAUGUGGGAAAUUAAGAUUACAGAUGCUUUGGGCCCCCUCAAACAGUACAUUGCUACAGUUCACUGUAGC	0.28
GGGGCUUCUGGGCCCCUGGGUAUCCCCACCUGUCGUGGCCACACCUCUGCCUGCCUCAUGCCCCUUCCCCCUGGCCUACCAAGGACAGCCCACAGCCCGCACUGCCGGCU	1.14
GACCCAGGAGAGAGGUGCCCCUUGUGGGAGUUCCAUUCUGUGGCAUGCAACUGAGCAGGGUUAGGGAAACAGGUGUCAAGAAUGAAGAGAAUGGUUUUAUCUCCAAGGUG	9.06
AUCCUGGGCUCUCAUCUGAACCCCUCUUCUACCCACUUCUACUUGGAGGUGUCCUGUCUUUUUAAAAUCAGUGCCAAGUGUGUCAGCAGGGGGCAUGAACAAAAACCAGU	0.395
UGUAGCCUGAGUGUCCACAGGGACACACGUGAGCCACAGGGCUAGAAGCACAGGCCCGUCACCCCAGGAGGAAAAGCCCAGGGUCUGGGGCAGCAGAGCCAUCGCAUCAU	1.2
AGCAUUGCAGCCUAUGUGCAAACCCAGAGGAAAAGUAUCUCUGUCAAGACAGCUCCAGUAUCAUGCAGCUUUUUAUGUUUGCACUCAAAAAGCCAGUGCCUUCUGGCUGG	0.372
CAGGCCUCUGGAAUCAGAAUCUUCAGGGUGGGGCCCAGCAGUCUGUGUUUUAACAGGUUCUCCCGGUGAUGCUGGUGCAUGCUCAAGUUUGAGAACCGCUGCUCUCAUAG	7.73
CUUGAUUUCUAGCCCCAUUCUGAGGGGCACCAGCUGUUACCCAGUUUCUAGUUCCUGGCUCUUGAGGGGCUUGGUCCUGCCUGCUCUAUGGAAGGGGCCAAGAGGAGCUG	0.387

Set 3
Target: ABI1, truncated, D143A, DHFR fusion (Arabidopsis thaliana)
Technique: DHFR PCA, deep sequencing
Medium: yeast
Notes: methotrexate growth selection, single substitutions
Together with: (+)-ABA 200 µM
Reference: wild-type fitted maximum
Direction: higher = stronger binding
Parent: PYL1, truncated, DHFR fusion (Arabidopsis thaliana); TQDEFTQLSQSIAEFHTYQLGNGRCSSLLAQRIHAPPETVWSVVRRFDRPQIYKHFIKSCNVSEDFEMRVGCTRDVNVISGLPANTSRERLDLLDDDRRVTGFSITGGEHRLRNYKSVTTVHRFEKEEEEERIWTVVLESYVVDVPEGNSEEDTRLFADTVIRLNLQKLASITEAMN; partner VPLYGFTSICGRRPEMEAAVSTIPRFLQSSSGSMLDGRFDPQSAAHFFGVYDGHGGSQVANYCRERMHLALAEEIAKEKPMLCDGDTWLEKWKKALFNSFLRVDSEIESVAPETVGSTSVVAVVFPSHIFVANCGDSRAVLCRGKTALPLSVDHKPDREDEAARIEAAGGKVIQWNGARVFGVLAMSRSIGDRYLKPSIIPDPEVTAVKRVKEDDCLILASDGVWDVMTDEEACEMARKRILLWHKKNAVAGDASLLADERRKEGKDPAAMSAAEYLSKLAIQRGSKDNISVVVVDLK
Variant	relative binding score [%]
V143R	-4.22
R24S	95.2
V62D	16
E4C	92.5
D65A	100
M176V	97
S171C	94.3
Q51H	105
G107P	26.2
N165I	-6.46
G148L	72.5
R74H	4.31
Q10I	87.9

Set 4
Target: Prothrombin, mature alpha-thrombin (F2, Homo sapiens, UniProt P00734)
Technique: aptamer microarray, sandwich
Form: DNA with 2'F-ANA
Medium: in vitro
Tested at: 200 nM
Notes: whole 15-mer aptamer, many near background
Together with: Cy3 exosite-II aptamer, 400 nM
Direction: higher = stronger binding
Sequence: GGTTGGTGTGGTTGG
Modification	mean fluorescence intensity [a.u.]
2'F-ANA at 2 3 4 5 9 11 12 14 15	61.2
2'F-ANA at 1 4 5 6 7 11 12 13 14 15	55.8
2'F-ANA at 1 2 4 6 7 8 11 14	54.2
2'F-ANA at 1 2 5 7 9 12 14 15	48.5
2'F-ANA at 1 6 7 9 14 15	58.4
2'F-ANA at 2 5 6 9 13 15	50.1
2'F-ANA at 2 5 6 10 11 14	55.7
2'F-ANA at 1 3 4 5 8 10 11 12 15	62.8
2'F-ANA at 3 5 6 7 8 10 11 12 13 14 15	57.5
2'F-ANA at 1 2 4 5 7 9 10 11 12 14	47.7
2'F-ANA at 2 3 4 5 10	52.4
2'F-ANA at 1 2 3 4 6 8 9 10 11 12 13 14 15	55.7
2'F-ANA at 2 3 6 7 8 9 13 14	321
2'F-ANA at 1 3 7 9 11 13 14	87
2'F-ANA at 1 2 3 6 7 9 10 11 12 15	70.4
2'F-ANA at 2 3 4 6 7 8 10 12 14 15	169
2'F-ANA at 2 3 4 9 12 14 15	316
2'F-ANA at 2 5 7 9 10 12 13 15	50.3
2'F-ANA at 1 5 7 10 11 13 15	47.4
2'F-ANA at 1 3 4 5 6 7 8 10 13 14 15	81
2'F-ANA at 1 2 5 6 10 11 13 15	96.1
2'F-ANA at 1 3 4 5 7 8 9 10 11 12 14	47.8
